Measurements of several laboratories.
Every numbered part comes from another study and shows a few of its results, in no order. Changes are numbered by the printed parent chain.

Set 1 — target: CCNA2, cyclin fold, Cln2 fusion (human); technique: yeast growth competition, sequencing; matrix: yeast; setting: strong parent motif; reference: not given; reading: higher = stronger binding
Parent: INSM1 docking peptide (human); PKAIRKLHFEDEV
Substitution	normalised enrichment score
E10L	4.22
F9Q	0.177
K6I	2.33
I4M	6.2
K6P	0.613
D11Y	4.79
I4G	4.76
I4V	5.55
E12S	5.23
H8Y	5.46
K6E	3.01
A3K	1.35
F9E	-0.297
A3D	0.134
K6H	4.19
L7W	0.152
E12T	5.32
K2S	5.01
F9I	-0.0859

Set 2 — technique: DHFR PCA, deep sequencing; matrix: yeast; with: (+)-ABA 0.11 µM; reference: wild-type fitted maximum; reading: higher = stronger binding
Target: ABI1, truncated, D143A, DHFR fusion (Arabidopsis thaliana)
Setting: methotrexate growth selection, single substitutions
Parent: PYL1, truncated, DHFR fusion (Arabidopsis thaliana); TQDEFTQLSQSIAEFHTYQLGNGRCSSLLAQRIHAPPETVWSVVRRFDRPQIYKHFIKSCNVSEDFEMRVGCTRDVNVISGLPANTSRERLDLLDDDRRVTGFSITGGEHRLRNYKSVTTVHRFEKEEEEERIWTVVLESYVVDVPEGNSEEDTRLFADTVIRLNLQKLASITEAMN
Substitution	relative binding score
I172K	4.64%
T86G	5.63%
V121P	-5.83%
Q31P	0.775%
S11M	23%
T173V	19.2%
E67V	45.5%
V145P	-7.34%
E152P	-15.4%
K126I	28.9%
R46I	-11.6%
G148K	-13.4%
I12T	-5.43%
E89D	-1.8%
S171A	52.5%
E147N	13.7%

Set 3 — technique: universal PBM; molecule type: double-stranded DNA, one strand shown; matrix: in vitro; concentration: not given; reading: higher = stronger binding
Target: Sal-like protein 4, full length isoform B (SALL4, Homo sapiens, UniProt Q9UJQ4-2, residues 1-616)
Setting: 8-mer, flanks averaged, mean of replicates
Oligonucleotide	E-score
ACCCAACC	-0.0265
ACCTAAAC	0.0194
AATTCCGT	0.23
CACACTCC	-0.0504
ACCGGGGA	-0.414
GCACTTCA	0.0525
ACCGGTCC	-0.312
AGAAAACT	0.0609
ATTAGTCC	0.197
ACGCAGTA	-0.141
AAGATCAC	0.0305
GAAAGACC	-0.209
AAGAGATT	0.0897
CACAACGG	-0.186
CTACTTAC	0.151
CAGTACTA	0.0688
AATGCAAT	0.267
CCAGGACG	-0.248
ATAAAGAA	0.293
CTGCCGAC	-0.225
CAGAAGCA	0.0776
ACCAGTAG	-0.0232
CCGTAGAA	-0.0903
GTTCGCCA	-0.089
CCAGAAAA	0.0422

Set 4 — technique: protein-binding microarray; molecule type: double-stranded DNA, one strand shown; matrix: in vitro; concentration: 0.8 µM; setting: whole 60-bp probe, no competitor; reading: higher = stronger binding
Target: Centromere-binding protein 1, full length, N-terminal tag (CBF1, Saccharomyces cerevisiae, UniProt P17106, residues 1-351)
Chain of UniProt P17106 (whole entry, looked up): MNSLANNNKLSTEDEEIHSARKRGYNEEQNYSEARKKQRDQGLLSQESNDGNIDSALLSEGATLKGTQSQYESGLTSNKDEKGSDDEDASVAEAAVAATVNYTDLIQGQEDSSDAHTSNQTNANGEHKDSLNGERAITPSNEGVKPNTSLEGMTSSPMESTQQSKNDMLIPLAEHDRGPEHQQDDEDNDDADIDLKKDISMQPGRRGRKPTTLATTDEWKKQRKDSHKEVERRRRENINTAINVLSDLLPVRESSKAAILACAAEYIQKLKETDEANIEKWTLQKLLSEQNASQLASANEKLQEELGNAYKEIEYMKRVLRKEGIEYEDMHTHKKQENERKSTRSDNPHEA
Oligonucleotide	fluorescence intensity [a.u.]
TGTACGAAGCTATATGCCGTGGCTATAGTAGTTAGGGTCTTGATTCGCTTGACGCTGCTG	487
CTAGCCACATTTCATCAGCTGTAGATCTGGAAATTCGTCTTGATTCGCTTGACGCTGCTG	525
GAATACAAAACTAACCACGTGCAGCATCGTCTTTAGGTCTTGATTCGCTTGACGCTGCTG	7730
CTACTGAGAGCGGGTCACGGCCCGCTGAAGGGATTCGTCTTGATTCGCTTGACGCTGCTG	592
GAATTTTTATAATATGGTGACATTAAATTAATATAGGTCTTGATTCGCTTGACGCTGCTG	658
GAAGGTTCTCTGGAACAGCTGATGAAGCAGGTGTAGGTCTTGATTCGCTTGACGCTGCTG	674
GAAAGAAGTGGCAACAACATCAGCAAAAGGGCATAGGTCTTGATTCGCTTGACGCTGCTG	503
CTATACCTTGGAGCTAGTGTGATCTTGTTGATATTCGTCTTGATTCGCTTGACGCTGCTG	530
CCTAACTACTATAAAGTTGTGACATAGCTTCGTACAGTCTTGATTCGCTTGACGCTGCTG	532
GAACCGAATTGTAATCTCGTGAAATACAAAAGGTAGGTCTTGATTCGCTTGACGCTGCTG	774
CTATTGGTTTTAACTCTGGTGACTTCAAGAAGGTTCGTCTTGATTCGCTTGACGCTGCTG	536
GAAGGGATTCCCCCTCCCGTGTCTTTTTATAAATAGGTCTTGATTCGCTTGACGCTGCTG	577
CTACGGGTTATAATGCACGTGATATGCACGTGGTTCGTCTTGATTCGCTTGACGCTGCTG	25600
GAAGGCTTTTATTAGCATGTGAAATGCTTTGTATAGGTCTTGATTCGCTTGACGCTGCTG	775
CCTAACTACTATAGTGATGACATATAGCTTCGTACAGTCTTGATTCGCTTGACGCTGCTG	558
GAAAAAATATATGCCCACGTTTGGAGTCATCAATAGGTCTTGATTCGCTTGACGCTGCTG	569
CCTAACTACTATAAGATCGTGACATAGCTTCGTACAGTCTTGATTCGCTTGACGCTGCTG	712
TGTACGAAGCTATAACACGTCATTATAGTAGTTAGGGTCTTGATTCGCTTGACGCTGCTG	543

Set 5 — target: OGT, full length, His-tagged (human); technique: phage display, sequencing; matrix: in vitro; concentration: 1 µg OGT; reference: input library; reading: higher = stronger binding; parent: peptide; VAYPNSYMPKYQIST
Setting: single substitutions, 15-mer displayed peptide, unchanged parent 6.14
Substitution	fold enrichment [fold]
VAYPNSYMPKYQISM [T15M]	5.13
VAYPNSYMEKYQIST [P9E]	0.561
VAQPNSYMPKYQIST [Y3Q]	4.71
VAYPNSYMPKYQNST [I13N]	0.532
VAYPNSYMPKYSIST [Q12S]	0.779
VEYPNSYMPKYQIST [A2E]	7.38
VAYPNSYMPKYQTST [I13T]	0.64
VADPNSYMPKYQIST [Y3D]	4.64
VAYPNSFMPKYQIST [Y7F]	6.82
VAYPNSAMPKYQIST [Y7A]	0.551
VAYPNSYMPQYQIST [K10Q]	3.8
VAYPNSYMPRYQIST [K10R]	1.55
VKYPNSYMPKYQIST [A2K]	0.253
VAYPNSYSPKYQIST [M8S]	0.798
DAYPNSYMPKYQIST [V1D]	9.04
MAYPNSYMPKYQIST [V1M]	3.57
VAYPNKYMPKYQIST [S6K]	4.51
IAYPNSYMPKYQIST [V1I]	4.91
VAYPNSYMPKYQIQT [S14Q]	12.7
VAYPNSYMPKYQRST [I13R]	0.503
VAYNNSYMPKYQIST [P4N]	5.8
VAYPNSYNPKYQIST [M8N]	1.02
VAYPNSYMPKYQISF [T15F]	8.74
VAYPNSYMPKYQISD [T15D]	0.567
VAYPNSYMPKYQISK [T15K]	3.46

Set 6 — technique: protein-binding microarray; molecule type: double-stranded DNA, one strand shown; matrix: in vitro; concentration: 2200 nM top; setting: 60-bp whole probe; with: salmon DNA 0.4 mg/ml; reference: random background probes; reading: higher = stronger binding; shared flanks, not repeated: GCCTAGCAC … GTCTTGATTCGCTTGACGCTGCTG
Target: Interferon regulatory factor 7, full length, phosphomimetic (IRF7, Homo sapiens, UniProt Q92985, residues 1-503, S471D/S472D/S475D/S476D/S477D/S483D/S484D/S487D)
Construct (chain): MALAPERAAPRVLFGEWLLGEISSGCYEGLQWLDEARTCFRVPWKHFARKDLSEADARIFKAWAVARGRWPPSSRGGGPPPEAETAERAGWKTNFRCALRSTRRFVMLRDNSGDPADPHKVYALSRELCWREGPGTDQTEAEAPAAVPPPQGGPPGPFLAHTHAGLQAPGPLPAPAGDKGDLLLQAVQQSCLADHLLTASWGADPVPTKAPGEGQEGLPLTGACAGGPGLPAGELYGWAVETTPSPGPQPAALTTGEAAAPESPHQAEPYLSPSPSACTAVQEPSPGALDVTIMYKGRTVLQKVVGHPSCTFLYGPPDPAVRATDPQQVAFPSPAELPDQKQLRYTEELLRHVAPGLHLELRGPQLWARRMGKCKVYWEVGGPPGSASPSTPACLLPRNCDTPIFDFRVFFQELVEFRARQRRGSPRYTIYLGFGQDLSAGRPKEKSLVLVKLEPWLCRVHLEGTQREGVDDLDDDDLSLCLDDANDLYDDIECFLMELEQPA
Oligonucleotide	fitted relative affinity [z-score]
TTAGGTATCCTTATTCTTTAGTGCTAG	0.742
GACGGTTTCCTTTTCCTGGCGTGCTAG	6.02
TTAGGTTTCCACTATCGGTTAGTGCTA	1.8
TCAAATTCCAAGTTCATACTGTGCTAG	0.486
GACGGGCTGCTACTGCTGACGTGCTAG	-0.72
TCATCTTTCTGTCAGTTACTGTGCTAG	2.2
GACGAACTGGGGTGTCGAGACGTGCTA	-0.212
TTAGGACTGCTTCTCCTATAGTGCTAG	0.882
TTCGGACTGCTTCTCCTTTAGTGCTAG	1.15
GACGGACTGGACTATCAGGACGTGCTA	-0.947
CCGGGGGGCACAGGGTGAGGGTGCTAG	1.27
TCATTTTTTCTAATTGAACTGTGCTAG	2.21
TACGGTTTCGACTTTCGGGACGTGCTA	8.84
TTAGATTACGGGTTTCGATTAGTGCTA	2.82
GACGATTTCGAGACTGGAGACGTGCTA	1.33
TTAGGTCTCGGACTGTGTTAGTGCTAG	0.188
TCACATACTGATTTCCAACTGTGCTAG	1.81
CTCACTCTGTCCCTCTGTGAGTGCTAG	1.8
GACGGAATCCTACTGCTGACGTGCTAG	0.327
TGTTACTAGGGTTACATAATGTGCTAG	0.274
GCCGGACTGGGGTATCGGGACGTGCTA	-1.12
TTAGGACTGGACACTAGGTTAGTGCTA	-0.874
TTAGGACTGCCTCTCCTTTAGTGCTAG	0.606
GACGGACTGGGGACTGGGTACGTGCTA	-0.801

Some of these lines once more (set 1):
Substitution	normalised enrichment score
I4M	6.2
K6P	0.613
D11Y	4.79
I4G	4.76
I4V	5.55
E12S	5.23
H8Y	5.46
K6E	3.01
A3K	1.35
F9E	-0.297
